# Assay results pooled from the literature.
# Lines come from different studies, so protocols differ. Numbers after ± are the reported error.
# Chain of UniProt Q9UBE8 (whole entry, looked up): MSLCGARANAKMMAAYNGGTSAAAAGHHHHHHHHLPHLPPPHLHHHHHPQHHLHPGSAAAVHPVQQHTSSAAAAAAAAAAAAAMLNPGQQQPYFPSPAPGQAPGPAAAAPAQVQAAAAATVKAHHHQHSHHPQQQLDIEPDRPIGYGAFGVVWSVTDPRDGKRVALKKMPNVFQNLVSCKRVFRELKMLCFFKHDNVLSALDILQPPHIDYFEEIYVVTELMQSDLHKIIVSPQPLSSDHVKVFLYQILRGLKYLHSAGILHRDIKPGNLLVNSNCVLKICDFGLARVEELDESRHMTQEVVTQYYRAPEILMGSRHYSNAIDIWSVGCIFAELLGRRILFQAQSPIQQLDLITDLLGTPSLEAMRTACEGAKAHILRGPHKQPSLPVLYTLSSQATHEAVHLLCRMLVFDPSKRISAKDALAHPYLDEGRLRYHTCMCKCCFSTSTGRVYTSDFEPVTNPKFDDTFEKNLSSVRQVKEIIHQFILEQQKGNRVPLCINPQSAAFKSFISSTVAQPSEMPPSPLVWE
SMILES,target or system,test,system,setting,how to read,quantity,value
CC[C@H](C)[C@H](NC(=O)[C@H](Cc1ccccc1)NC(=O)[C@H](CCC(=O)O)NC(=O)[C@H](CCCNC(=N)N)NC(=O)[C@H](C)NC(=O)[C@H](C)NC(=O)[C@H](CCC(N)=O)NC(=O)[C@H](CCC(=O)O)NC(=O)[C@H](CCC(=O)O)NC(=O)[C@H](CC(C)C)NC(=O)[C@H](Cc1ccc(O)cc1)NC(=O)[C@H](CO)NC(=O)[C@H](CO)NC(=O)[C@@H](NC(=O)[C@H](CC(=O)O)NC(=O)[C@H](CO)NC(=O)[C@@H](NC(=O)[C@H](Cc1ccccc1)NC(=O)[C@@H](NC(=O)CNC(=O)[C@H](CCC(=O)O)NC(=O)[C@H](C)NC(=O)CCc1c[nH]cn1)[C@@H](C)O)[C@@H](C)O)C(C)C)C(=O)N[C@@H](C)C(=O)N[C@@H](Cc1c[nH]c2ccccc12)C(=O)N[C@@H](CC(C)C)C(=O)N[C@H](C(=O)N[C@@H](CCCNC(=N)N)C(=O)NCC(=O)N[C@@H](CCCNC(=N)N)C(=O)N[C@@H](CCCCNC(=O)COCCOCCNC(=O)COCCOCCNC(=O)CC[C@H](NC(=O)CCCCCCCCCCCCCCCCC(=O)O)C(=O)O)C(=O)NCC(=O)NCC(=O)N[C@@H](CO)C(=O)N[C@@H](CCCCNc1c(NCCCCCN(O)C(=O)CCC(=O)NCCCCCN(O)C(=O)CCC(=O)NCCCCCN(O)C(C)=O)c(=O)c1=O)C(=O)O)C(C)C [zirconium-89 labelled],,ex vivo gamma counting,"rat, stomach","subcutaneous, 3 nmol/kg, 168 h, with: [89Zr]-labelled peptide",,tissue uptake,0.13 %ID/g
C[C@H]1CN(c2n[nH]c3nc(N[C@H]4CC[C@H](NS(=O)(=O)CCC(F)(F)F)CC4)ncc23)CCO1,"NLK (Homo sapiens, UniProt Q9UBE8)",Kinobeads competition,"HEK293, K562, placenta lysate","0.8 µM, unit not given",reference: vehicle,remaining binding,0.5
CN1CCN(C2(CNC3CCN(c4cccc(-c5cc6cc(F)ccc6[nH]5)c4)CC3)CCC2)CC1,NCI/ADR-RES,,,,,GI50,1680 nM
N#C[Se]Cc1cc(=O)oc2cc(O)ccc12,"WiDr, multidrug-resistant",sulforhodamine B,,,,GI50,31000 ± 7000 nM
CC(C)N1CCC(NC2CCN(c3cccc(-c4cc5cc(F)ccc5[nH]4)c3)CC2)CC1,SW-620,,,,,GI50,397 nM
C[C@]12CC[C@H](n3ccnc3)CC1=CC[C@@H]1[C@@H]2CC[C@]2(C)C(n3cnc4ccccc43)=CC[C@@H]12,C4-2B,"cell growth, MTT",,,,GI50,300 ± 160 nM
COc1cc(CCC[P+](c2ccccc2)(c2ccccc2)c2ccccc2)c(OC)c2c1OCO2.[I-],TK-10,SRB,,,,GI50,-5.39 log M
COc1cc2c(Oc3ccc4[nH]c(C)cc4c3F)ccnc2cc1OCC1(N)CC1,,,paediatric refractory sarcoma patients,12 mg,,grade 3 mouth ulcer,0%
CC[C@H](C)[C@@H]1NC(=O)[C@@H]2CCCN2C(=O)[C@H](CC(C)C)NC(=O)[C@H](CC(C)C)NC(=O)CNC(=O)[C@@H](NC(=O)[C@@H](NC(=O)[C@H](CC(=O)O)NC(=O)CNC(=O)[C@@H](NC(=O)[C@H](C)NC(=O)CNC(=O)[C@H](CCCCN)NC(=O)[C@H](CC(C)C)NC(=O)[C@H](CC(C)C)NC(=O)[C@H](CCCCN)NC(=O)CNC(=O)[C@@H](NC(=O)[C@@H](N)CC(C)C)C(C)C)C(C)C)C(C)C)CSSC[C@@H](C(=O)O)NC1=O,,"RNA-seq, measured: Pilra mRNA","mouse traumatic brain injury, frontal cortex and hippocampus",dose not given,reference: TBI plus compound vs TBI,log2 fold change,-2.96
C[C@]12CC[C@H](O)CC1=CC[C@@H]1[C@@H]2CC[C@]2(C)C(n3cnc4ccccc43)=CC[C@@H]12,C4-2B,"cell growth, MTT",,,,GI50,210 ± 120 nM
Cc1cc(=O)oc2cc(OCCCC[Se]C#N)ccc12,"WiDr, multidrug-resistant",sulforhodamine B,,,,GI50,1400 ± 300 nM
Nc1ncc(-c2nc(N3CCOCC3)nc(N3CCOCC3)n2)c(C(F)F)n1,U-87 MG,cell growth,,72 h,,GI50,194 nM
COc1c(CCC[P+](c2ccccc2)(c2ccccc2)c2ccccc2)cc2c(c1OC)OCO2.[I-],T47D,SRB,,,,GI50,-6.38 log M
